# Measurements pooled from the literature.
# Numbered parts are unrelated; each lists some results of a single study.
# Chain of UniProt Q8WXR4 (whole entry, looked up): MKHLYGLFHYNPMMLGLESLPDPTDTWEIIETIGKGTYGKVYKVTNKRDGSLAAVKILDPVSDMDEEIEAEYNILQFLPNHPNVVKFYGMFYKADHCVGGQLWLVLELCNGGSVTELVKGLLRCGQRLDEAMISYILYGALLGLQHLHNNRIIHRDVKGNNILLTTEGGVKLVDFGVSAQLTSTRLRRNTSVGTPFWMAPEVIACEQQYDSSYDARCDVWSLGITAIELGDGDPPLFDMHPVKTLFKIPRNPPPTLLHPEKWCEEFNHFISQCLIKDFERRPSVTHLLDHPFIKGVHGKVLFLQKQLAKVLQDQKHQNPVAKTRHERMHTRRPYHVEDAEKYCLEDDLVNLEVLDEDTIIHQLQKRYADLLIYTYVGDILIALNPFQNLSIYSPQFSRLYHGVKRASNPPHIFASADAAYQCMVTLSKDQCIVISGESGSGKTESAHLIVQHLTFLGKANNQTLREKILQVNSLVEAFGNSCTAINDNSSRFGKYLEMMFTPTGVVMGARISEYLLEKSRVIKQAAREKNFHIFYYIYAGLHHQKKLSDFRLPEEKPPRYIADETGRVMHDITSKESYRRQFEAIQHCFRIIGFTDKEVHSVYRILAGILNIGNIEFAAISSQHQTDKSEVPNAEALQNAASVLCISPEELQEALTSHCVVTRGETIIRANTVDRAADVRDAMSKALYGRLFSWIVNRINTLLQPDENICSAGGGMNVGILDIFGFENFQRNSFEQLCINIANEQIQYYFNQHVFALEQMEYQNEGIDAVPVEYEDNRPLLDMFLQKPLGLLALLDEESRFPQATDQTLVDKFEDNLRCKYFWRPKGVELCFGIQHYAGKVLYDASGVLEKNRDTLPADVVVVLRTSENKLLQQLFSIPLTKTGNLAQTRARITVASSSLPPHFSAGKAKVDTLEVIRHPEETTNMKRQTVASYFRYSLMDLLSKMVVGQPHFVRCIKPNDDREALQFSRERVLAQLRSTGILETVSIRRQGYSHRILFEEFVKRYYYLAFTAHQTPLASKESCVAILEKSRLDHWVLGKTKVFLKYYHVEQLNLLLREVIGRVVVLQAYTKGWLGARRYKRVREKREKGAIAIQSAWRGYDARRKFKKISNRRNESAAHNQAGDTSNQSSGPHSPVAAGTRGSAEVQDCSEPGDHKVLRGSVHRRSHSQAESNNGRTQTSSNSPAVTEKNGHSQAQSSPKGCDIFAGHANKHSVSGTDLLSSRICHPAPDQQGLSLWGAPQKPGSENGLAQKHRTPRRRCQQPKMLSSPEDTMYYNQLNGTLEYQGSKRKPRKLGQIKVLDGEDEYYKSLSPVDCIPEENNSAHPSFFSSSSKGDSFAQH
# Chain of UniProt O14920 (whole entry, looked up): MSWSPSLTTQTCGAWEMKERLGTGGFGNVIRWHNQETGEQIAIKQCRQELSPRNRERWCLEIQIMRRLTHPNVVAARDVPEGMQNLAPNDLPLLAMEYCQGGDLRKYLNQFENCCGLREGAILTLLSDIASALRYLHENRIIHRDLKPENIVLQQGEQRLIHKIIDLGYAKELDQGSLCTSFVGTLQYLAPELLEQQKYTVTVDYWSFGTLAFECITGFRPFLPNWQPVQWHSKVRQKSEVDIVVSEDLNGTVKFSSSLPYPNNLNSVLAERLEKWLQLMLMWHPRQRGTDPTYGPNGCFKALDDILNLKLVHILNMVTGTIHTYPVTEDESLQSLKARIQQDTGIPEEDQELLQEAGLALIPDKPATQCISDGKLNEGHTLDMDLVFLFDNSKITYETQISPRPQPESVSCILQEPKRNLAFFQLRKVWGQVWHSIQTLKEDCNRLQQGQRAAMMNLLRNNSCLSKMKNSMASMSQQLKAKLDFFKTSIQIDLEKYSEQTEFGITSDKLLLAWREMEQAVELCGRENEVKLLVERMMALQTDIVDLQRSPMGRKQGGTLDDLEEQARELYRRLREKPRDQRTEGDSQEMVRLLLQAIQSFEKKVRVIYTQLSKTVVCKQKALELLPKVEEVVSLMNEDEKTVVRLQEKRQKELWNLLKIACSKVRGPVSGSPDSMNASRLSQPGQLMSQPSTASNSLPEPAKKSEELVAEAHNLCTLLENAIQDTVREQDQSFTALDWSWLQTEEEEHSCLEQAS
# Chain of UniProt Q9UM73 (whole entry, unmodified, looked up): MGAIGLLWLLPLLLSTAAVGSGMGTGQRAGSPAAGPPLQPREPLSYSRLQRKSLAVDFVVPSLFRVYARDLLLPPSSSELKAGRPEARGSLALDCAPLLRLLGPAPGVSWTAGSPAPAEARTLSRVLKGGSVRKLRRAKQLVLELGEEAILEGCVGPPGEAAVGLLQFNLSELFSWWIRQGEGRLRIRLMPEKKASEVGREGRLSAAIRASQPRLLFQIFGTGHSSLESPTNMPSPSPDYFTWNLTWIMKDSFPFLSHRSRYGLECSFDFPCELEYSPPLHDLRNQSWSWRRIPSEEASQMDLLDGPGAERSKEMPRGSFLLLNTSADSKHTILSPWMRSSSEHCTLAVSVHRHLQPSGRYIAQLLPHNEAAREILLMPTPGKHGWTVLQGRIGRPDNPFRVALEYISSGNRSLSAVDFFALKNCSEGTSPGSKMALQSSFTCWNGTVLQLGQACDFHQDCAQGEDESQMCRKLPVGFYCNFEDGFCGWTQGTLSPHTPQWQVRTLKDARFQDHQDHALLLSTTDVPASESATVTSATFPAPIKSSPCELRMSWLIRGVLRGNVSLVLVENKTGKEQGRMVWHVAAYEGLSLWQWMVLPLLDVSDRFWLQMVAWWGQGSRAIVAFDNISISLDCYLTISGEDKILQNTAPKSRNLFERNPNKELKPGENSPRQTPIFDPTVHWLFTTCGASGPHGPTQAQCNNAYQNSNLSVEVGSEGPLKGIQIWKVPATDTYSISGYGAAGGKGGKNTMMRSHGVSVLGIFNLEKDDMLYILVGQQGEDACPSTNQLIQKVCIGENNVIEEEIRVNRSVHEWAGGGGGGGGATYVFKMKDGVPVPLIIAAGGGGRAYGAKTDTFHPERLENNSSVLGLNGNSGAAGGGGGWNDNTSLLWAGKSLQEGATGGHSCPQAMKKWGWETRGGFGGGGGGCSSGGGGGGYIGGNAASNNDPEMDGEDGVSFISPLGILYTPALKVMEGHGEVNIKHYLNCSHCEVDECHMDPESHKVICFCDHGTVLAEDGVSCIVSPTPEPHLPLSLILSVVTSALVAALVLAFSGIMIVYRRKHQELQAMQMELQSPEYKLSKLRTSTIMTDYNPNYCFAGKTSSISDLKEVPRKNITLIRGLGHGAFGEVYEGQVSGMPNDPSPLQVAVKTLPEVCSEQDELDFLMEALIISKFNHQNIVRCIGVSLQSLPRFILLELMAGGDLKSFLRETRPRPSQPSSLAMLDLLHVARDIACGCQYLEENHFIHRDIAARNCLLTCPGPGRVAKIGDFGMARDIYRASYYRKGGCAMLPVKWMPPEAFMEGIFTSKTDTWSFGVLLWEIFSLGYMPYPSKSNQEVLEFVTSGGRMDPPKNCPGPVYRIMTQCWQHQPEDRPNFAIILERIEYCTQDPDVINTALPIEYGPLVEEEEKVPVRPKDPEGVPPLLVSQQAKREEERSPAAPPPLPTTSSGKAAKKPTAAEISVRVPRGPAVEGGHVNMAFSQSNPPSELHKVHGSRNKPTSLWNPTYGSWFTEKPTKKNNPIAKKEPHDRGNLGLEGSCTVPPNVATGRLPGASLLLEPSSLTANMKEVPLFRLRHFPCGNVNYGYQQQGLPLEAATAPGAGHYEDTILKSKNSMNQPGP
# Chain of UniProt P0C1S8 (whole entry, looked up): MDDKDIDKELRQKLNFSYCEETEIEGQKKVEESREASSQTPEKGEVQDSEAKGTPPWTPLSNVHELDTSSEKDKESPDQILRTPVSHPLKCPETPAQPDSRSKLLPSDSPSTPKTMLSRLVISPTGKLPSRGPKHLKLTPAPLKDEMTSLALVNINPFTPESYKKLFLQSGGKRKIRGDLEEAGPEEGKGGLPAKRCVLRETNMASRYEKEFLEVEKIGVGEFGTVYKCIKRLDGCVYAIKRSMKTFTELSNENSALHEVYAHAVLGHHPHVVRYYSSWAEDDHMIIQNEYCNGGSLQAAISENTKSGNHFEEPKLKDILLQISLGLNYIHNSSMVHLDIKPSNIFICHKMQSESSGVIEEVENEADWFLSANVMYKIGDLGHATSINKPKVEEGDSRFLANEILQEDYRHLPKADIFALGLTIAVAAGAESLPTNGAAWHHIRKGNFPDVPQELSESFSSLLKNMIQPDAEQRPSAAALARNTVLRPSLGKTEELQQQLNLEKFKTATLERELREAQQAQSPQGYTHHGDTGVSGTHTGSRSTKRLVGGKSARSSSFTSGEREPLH
# Chain of UniProt Q9HC98 (whole entry, looked up): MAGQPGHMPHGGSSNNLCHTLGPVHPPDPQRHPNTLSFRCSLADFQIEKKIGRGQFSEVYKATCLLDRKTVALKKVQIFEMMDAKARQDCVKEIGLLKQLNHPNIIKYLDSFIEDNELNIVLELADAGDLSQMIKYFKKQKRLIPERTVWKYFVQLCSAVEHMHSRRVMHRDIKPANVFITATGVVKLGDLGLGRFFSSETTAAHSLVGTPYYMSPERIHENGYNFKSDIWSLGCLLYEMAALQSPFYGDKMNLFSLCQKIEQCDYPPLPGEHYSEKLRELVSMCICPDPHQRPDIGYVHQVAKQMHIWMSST
# Chain of UniProt P51955 (whole entry, looked up): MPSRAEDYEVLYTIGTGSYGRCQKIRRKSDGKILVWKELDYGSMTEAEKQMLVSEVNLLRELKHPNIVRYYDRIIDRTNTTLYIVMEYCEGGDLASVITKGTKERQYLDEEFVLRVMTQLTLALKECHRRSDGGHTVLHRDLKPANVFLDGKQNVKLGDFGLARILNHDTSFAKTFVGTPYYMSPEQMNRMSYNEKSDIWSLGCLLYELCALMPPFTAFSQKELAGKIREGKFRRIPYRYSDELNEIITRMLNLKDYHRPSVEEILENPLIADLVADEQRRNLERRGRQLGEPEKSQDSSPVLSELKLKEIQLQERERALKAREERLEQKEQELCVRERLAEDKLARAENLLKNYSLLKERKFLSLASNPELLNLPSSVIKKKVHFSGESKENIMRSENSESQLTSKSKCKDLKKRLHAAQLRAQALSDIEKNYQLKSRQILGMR

# Block 1
# SMILES: COc1cc2ncnc(Nc3ccc(OCc4ccccc4)cc3)c2cc1OC
# Read-out: enzyme activity
# Mode: inhibitor
# Concentration: 0.5 µM
# Reference: control
target,remaining activity
"PRKACA (Homo sapiens, UniProt P17612)",101%
"IKBKB (Homo sapiens, UniProt O14920)",103%
"DAPK1 (Homo sapiens, UniProt P53355)",98.5%
"STK10 (Homo sapiens, UniProt O94804)",68.2%
"MAPK9 (Homo sapiens, UniProt P45984)",106%
"cGMP-dependent protein kinase 1, isoform beta (PRKG1, Homo sapiens, UniProt Q13976)",90.3%
"PRKCA (Homo sapiens, UniProt P17252)",93.9%
"Cyclin-dependent kinase 5, with p25 (CDK5, Homo sapiens, UniProt Q00535)",97.8%
"GRK3 (Homo sapiens, UniProt P35626)",99.6%
"Protein kinase C beta type, isoform beta-I (PRKCB, Homo sapiens, UniProt P05771)",97.4%
"TGFBR2 (Homo sapiens, UniProt P37173)",121%
"CAMKK2 (Homo sapiens, UniProt Q96RR4)",99.7%
"STK11 (Homo sapiens, UniProt Q15831)",102%
"CHEK2 (Homo sapiens, UniProt O96017)",14.2%
"CAMK2D (Homo sapiens, UniProt Q13557)",95.8%
"DAPK2 (Homo sapiens, UniProt Q9UIK4)",99.9%
"TGFBR1 (Homo sapiens, UniProt P36897)",95.7%
"MAP3K3 (Homo sapiens, UniProt Q99759)",88.7%
"STK39 (Homo sapiens, UniProt Q9UEW8)",95.8%
"OXSR1 (Homo sapiens, UniProt O95747)",110%
"IKBKE (Homo sapiens, UniProt Q14164)",99.7%
"Tyrosine-protein kinase Lyn, isoform B (LYN, Homo sapiens, UniProt P07948)",92.8%
"NEK2 (Homo sapiens, UniProt P51955)",107%

# Block 2
# Structure (SMILES): CC(=O)Nc1c(C(C)=O)c(=O)n(C)c2nc(-c3ccc(Cl)cc3Cl)c(-c3ccc(Cl)cc3)cc12
# Method: competition with immobilised ligand
# Concentration: 1 µM
target,assay,remaining binding
"CSNK1E (Homo sapiens, UniProt P49674)",cell-free assay,100%
"CDK2 (Homo sapiens, UniProt P24941)",cell-free assay,100%
"PIK3C3 (Homo sapiens, UniProt Q8NEB9)",cell-free assay,100%
"FLT3 (Homo sapiens, UniProt P36888, D835Y)",cell-free assay,100%
"EIF2AK2 (Homo sapiens, UniProt P19525)",cell-free assay,100%
"CAMK2B (Homo sapiens, UniProt Q13554)",cell-free assay,100%
"ALK (Homo sapiens, UniProt Q9UM73, C1156Y)",cell-free assay,100%
"FLT3 (Homo sapiens, UniProt P36888)",cell-free assay,100%
"WEE2 (Homo sapiens, UniProt P0C1S8)",cell-free assay,100%
"Tyrosine-protein kinase ABL1, phosphorylated (ABL1, Homo sapiens, UniProt P00519, Y253F)",cell-free assay,96%
"CAMK4 (Homo sapiens, UniProt Q16566)",cell-free assay,100%
"Cyclin-dependent kinase 4, with cyclin D3 (CDK4, Homo sapiens, UniProt P11802)",cell-free assay,100%
"NEK6 (Homo sapiens, UniProt Q9HC98)",cell-free assay,100%
"KIT (Homo sapiens, UniProt P10721, D816H)",cell-free assay,100%
"Aurora kinase A (AURKA, Homo sapiens, UniProt O14965)",cell-free assay,100%
"IRAK3 (Homo sapiens, UniProt Q9Y616)",cell-free assay,95%
"Myosin-IIIb (MYO3B, Homo sapiens, UniProt Q8WXR4)",binding,100%

# Block 3
# Structure (SMILES): Cc1nc(Nc2ncc(C(=O)Nc3c(C)cccc3Cl)s2)cc(N2CCN(CCO)CC2)n1
# Mode: inhibitor
target,conditions,inhibition
"PIP4K2B (Homo sapiens, UniProt P78356)",10 µM,< 50%
"PTK2 (Homo sapiens, UniProt Q05397)",10 µM,< 50%
"PRKACA (Homo sapiens, UniProt P17612)",10 µM,< 50%
"MAP2K3 (Homo sapiens, UniProt P46734)",10 µM,< 50%
"COQ8A (Homo sapiens, UniProt Q8NI60)",10 µM,100%
"CDC42BPG (Homo sapiens, UniProt Q6DT37)",10 µM,98%
"PRKCD (Homo sapiens, UniProt Q05655)",10 µM,< 50%
"CHUK (Homo sapiens, UniProt O15111)",10 µM,< 50%
"AKT3 (Homo sapiens, UniProt Q9Y243)",10 µM,< 50%
"PDPK1 (Homo sapiens, UniProt O15530)",1 µM,< 50%
"EPHA7 (Homo sapiens, UniProt Q15375)",10 µM,< 50%
"DDR2 (Homo sapiens, UniProt Q16832)",10 µM,100%
"Myosin-IIIb (MYO3B, Homo sapiens, UniProt Q8WXR4)",10 µM,< 50%

# Block 4
# Species: mouse
# Sample: microsomes or S9
# Concentration: 2 µM
# Time: 0.5 h
Structure (SMILES),remaining compound
c1ccc(-c2ncc(CNc3cccc(-c4nnc[nH]4)c3)s2)nc1,49.3%
CC(C)Cn1c(NCCN(C)C)nc2c1c(=O)[nH]c(=O)n2C,94.6%
CC1(C(=O)NC2CCCCCC2)Cn2c(cc3occc32)C(=O)N1Cc1ccco1 (centres unmarked),0.161%
COc1nc(OCC(=O)c2ccccc2)nc(OC)c1Br,0.386%
COc1ccccc1-n1c(=O)n(Cc2cccc(C)c2)c(=O)c2c(C)cc(C)nc21,0.0696%
CCn1nc(C)cc1S(=O)(=O)NC1CCOC2(CCOCC2)C1 (centres unmarked),20.7%
COc1cc(=O)[nH]cc1C(=O)N1CCN(c2cncc(F)c2)CC1,73.1%
CCS(=O)(=O)N1CC(=O)N(Cc2ccc(OC(C)C)cc2)C(C)(C(=O)NCc2ccccc2)C1 (centres unmarked),3.92%
COc1cc(C#N)cc(Br)c1OCCCn1ccnc1,53.1%
Cc1nc2ccc(N3CCN(c4ncc(C)s4)CC3)nn2n1,> 100%
Cc1ccccc1NC(=O)CC(=O)NS(=O)(=O)c1ccc(Cl)cc1,25.7%
CCn1c(CO)nnc1[C@H]1C[C@@H](NC(=O)CCn2c(C)cccc2=O)C1,> 100%
Cc1nc(C)c(C(=O)N2C3CCC2Cn2c(nnc2-c2ccccc2)C3)s1 (centres unmarked),> 100%
Cc1ccc(C(=O)NNc2ccccn2)c(Nc2ccc3cn[nH]c3c2)n1,5.3%
CCOC(=O)c1c2ccc(N(CC)CC)cc2n2c(Cl)cccc12,67.8%
N#Cc1nccnc1OC1CCN(C(=O)c2ccc(N3CCOCC3)cc2)C1 (centres unmarked),73.9%
O=C(NCCN1CCCCC1)c1cc2ccc3ccccc3c2o1,6.43%
O=C1C(N2CCC3(CCOCC3)C2)CCN1c1cccc(Cl)c1 (centres unmarked),14.8%
